Measurements of several laboratories.
Lines come from different studies, so protocols differ. Numbers after ± are the reported error.
14-3-3 protein epsilon: 14-3-3 protein epsilon (Homo sapiens, UniProt P62258)
Sequence of UniProt P62258 (whole entry, looked up): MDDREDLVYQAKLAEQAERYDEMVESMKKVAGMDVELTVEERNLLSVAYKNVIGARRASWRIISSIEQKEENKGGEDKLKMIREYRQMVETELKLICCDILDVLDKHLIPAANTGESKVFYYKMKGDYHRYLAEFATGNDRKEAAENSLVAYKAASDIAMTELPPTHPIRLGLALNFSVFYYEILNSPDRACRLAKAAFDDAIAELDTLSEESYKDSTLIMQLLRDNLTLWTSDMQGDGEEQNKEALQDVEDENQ
Sequence of UniProt Q704Y3 (whole entry, unmodified, looked up): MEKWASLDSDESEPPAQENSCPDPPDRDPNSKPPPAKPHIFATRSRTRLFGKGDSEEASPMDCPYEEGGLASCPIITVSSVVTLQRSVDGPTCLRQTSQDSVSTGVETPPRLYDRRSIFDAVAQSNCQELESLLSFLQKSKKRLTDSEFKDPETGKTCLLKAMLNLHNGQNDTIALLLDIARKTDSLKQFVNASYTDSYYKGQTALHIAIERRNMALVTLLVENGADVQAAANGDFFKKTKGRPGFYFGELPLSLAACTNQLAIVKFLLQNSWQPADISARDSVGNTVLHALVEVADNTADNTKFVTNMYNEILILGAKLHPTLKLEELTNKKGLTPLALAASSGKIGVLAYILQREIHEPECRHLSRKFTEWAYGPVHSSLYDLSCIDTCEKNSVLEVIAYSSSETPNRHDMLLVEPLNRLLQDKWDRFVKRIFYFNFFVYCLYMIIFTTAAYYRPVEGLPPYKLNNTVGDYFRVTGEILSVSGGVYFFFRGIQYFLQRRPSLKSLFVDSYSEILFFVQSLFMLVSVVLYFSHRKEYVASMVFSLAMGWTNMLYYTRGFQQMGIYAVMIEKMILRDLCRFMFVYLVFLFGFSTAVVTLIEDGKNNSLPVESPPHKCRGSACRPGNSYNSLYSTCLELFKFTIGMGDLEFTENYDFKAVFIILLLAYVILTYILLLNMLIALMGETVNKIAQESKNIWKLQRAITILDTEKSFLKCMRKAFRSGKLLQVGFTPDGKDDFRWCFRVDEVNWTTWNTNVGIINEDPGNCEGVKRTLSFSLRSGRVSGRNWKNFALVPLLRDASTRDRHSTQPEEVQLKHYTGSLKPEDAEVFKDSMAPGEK
Sequence of UniProt P50391 (whole entry, looked up): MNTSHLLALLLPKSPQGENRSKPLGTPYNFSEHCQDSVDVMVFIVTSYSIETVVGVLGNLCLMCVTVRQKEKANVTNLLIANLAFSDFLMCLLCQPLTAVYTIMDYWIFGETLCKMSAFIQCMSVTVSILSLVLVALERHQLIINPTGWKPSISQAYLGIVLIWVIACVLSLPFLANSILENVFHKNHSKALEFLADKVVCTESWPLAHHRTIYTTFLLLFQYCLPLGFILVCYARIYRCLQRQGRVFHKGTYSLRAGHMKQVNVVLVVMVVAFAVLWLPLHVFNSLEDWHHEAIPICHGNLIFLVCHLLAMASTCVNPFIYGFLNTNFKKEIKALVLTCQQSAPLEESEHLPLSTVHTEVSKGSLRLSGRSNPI
Sequence of UniProt P41143 (whole entry, unmodified, looked up): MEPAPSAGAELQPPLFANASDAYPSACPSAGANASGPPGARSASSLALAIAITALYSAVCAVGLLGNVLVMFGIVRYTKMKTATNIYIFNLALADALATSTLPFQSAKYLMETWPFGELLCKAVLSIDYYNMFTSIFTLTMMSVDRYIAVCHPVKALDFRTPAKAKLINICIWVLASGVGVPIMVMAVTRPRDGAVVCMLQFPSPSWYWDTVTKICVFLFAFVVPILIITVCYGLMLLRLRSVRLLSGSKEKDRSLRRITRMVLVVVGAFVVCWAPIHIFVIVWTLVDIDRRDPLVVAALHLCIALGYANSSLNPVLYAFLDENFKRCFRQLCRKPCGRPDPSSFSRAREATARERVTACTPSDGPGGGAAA
Sequence of UniProt Q9UKP6 (whole entry, unmodified, looked up): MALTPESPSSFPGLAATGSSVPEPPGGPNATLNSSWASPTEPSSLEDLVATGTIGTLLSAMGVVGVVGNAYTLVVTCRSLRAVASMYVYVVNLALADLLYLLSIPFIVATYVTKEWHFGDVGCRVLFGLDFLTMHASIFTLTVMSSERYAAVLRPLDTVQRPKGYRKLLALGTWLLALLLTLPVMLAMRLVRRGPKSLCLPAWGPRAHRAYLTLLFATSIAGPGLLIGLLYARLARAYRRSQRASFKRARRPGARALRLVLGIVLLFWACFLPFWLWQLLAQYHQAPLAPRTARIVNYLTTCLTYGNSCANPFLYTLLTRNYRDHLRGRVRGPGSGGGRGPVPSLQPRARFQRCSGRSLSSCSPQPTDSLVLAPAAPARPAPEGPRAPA
Sequence of UniProt Q14004 (whole entry, looked up): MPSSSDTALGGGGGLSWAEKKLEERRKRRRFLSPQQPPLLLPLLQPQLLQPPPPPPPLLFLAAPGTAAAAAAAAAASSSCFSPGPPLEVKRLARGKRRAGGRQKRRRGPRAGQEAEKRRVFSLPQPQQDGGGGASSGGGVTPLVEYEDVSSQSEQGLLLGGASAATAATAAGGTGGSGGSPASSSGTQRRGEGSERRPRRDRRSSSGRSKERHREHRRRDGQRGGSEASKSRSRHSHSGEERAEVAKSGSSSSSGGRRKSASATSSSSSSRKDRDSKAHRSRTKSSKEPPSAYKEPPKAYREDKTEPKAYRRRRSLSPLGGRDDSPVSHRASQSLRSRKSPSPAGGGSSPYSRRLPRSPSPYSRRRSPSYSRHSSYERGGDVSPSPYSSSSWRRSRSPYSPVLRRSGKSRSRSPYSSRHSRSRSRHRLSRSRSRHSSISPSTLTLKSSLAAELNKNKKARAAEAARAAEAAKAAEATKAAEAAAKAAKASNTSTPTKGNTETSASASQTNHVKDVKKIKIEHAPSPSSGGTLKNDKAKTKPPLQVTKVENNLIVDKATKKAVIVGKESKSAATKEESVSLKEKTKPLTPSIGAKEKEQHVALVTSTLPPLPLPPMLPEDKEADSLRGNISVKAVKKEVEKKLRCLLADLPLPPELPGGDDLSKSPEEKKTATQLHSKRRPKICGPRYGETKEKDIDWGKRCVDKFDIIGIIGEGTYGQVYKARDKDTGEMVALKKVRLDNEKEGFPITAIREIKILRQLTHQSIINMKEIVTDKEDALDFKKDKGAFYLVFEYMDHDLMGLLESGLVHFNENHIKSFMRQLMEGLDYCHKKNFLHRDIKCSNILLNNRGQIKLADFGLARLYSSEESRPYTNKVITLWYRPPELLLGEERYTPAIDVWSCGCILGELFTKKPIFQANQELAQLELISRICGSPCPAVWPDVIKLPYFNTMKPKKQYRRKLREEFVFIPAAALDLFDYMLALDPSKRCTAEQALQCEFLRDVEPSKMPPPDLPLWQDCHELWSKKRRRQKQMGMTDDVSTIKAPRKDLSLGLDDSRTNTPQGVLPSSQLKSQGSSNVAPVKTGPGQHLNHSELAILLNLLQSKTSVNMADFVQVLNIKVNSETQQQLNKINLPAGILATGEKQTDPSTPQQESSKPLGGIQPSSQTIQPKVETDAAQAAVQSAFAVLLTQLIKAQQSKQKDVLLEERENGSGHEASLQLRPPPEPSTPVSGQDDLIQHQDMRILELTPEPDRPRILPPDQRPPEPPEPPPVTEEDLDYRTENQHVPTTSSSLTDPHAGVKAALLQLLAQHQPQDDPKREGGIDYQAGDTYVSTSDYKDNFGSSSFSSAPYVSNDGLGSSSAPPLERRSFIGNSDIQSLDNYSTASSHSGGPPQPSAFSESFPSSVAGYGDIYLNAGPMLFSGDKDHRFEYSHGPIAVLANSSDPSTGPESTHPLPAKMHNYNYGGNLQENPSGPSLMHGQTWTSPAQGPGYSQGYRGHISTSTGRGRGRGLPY
Sequence of UniProt P10635 (whole entry, looked up): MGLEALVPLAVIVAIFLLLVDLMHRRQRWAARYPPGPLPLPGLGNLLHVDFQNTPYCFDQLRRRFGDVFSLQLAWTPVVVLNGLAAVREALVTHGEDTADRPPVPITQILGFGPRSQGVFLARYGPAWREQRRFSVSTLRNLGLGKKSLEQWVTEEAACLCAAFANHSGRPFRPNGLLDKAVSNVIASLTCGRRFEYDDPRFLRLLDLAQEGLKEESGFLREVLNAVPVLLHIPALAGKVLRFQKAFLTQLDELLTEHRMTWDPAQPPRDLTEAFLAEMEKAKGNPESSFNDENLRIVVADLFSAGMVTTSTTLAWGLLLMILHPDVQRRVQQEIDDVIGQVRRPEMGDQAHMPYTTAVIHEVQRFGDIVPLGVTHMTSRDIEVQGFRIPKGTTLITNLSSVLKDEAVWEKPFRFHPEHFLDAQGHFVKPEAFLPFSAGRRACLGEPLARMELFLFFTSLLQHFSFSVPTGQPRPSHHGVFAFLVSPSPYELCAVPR
Sequence of UniProt Q9Y6E0 (whole entry, looked up): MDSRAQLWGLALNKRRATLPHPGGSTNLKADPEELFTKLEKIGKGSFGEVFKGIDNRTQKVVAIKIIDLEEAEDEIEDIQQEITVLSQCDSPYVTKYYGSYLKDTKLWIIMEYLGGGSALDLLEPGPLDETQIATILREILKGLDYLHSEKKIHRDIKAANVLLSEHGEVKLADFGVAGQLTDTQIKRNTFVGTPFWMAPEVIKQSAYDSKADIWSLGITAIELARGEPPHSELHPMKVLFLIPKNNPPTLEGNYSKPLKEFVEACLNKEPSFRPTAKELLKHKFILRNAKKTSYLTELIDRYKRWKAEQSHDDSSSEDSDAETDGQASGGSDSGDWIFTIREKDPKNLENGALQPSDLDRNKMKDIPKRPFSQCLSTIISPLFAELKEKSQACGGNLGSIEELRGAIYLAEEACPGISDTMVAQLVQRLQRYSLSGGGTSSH

CS(C)(=O)=Nc1ccc(-c2ccc(-c3nc4cc(O[C@@H]5CO[C@H]6[C@@H]5OC[C@H]6O)[nH]c4cc3F)cc2)cc1 has an inhibition of -6% (Serine/threonine-protein kinase 24 (STK24, Homo sapiens, UniProt Q9Y6E0); enzyme activity, inhibitor; 10 µM).
O=C(N[C@@H]1c2ccccc2C[C@H]1N1CCCC1)c1ccc(-c2ccnc3[nH]ccc23)nc1 has a Kd of 10000 nM (Cyclin-dependent kinase 13 (CDK13, Homo sapiens, UniProt Q14004); binding, competition with immobilised ligand).
CC(=O)N[C@@H](CCCNC(=N)N)C(=O)N[C@H](C(=O)N[C@@H](CCCCN)C(=O)N[C@@H](CO)C(=O)N[C@@H](CCCNC(=N)N)C(=O)N[C@H](C(=O)N[C@@H](Cc1c[nH]c2ccccc12)C(=O)N[C@@H](C)C(=O)N[C@@H](Cc1c[nH]c2ccccc12)C(N)=O)[C@@H](C)OP(=O)(O)O)[C@@H](C)O: “binding free energy” -9.71 ± 0.1 kcal/mol (14-3-3 protein epsilon; surface plasmon resonance; 298 K).
The EC50 of Cc1ccc(C)c(OCCn2cc(C(=O)O)c3ccccc32)c1 is reported as 347 nM (GTPase HRas (HRAS, Homo sapiens, UniProt P01112); GTP binding, flow cytometry; EDTA, together with: BODIPY-GTP 100 nM).
For CC(C)[C@H](NC(=O)[C@@H]1CSSC(C)(C)[C@H](NC(=O)[C@@H](N)CC(=O)O)C(=O)N[C@@H](Cc2ccccc2)C(=O)N[C@@H](Cc2c[nH]c3ccccc23)C(=O)N[C@@H](CCCCN)C(=O)N[C@@H](Cc2ccc(O)cc2)C(=O)N1)C(=O)O, the EC50 was 0.794 nM (Urotensin-2 receptor (UTS2R, Homo sapiens, UniProt Q9UKP6, I138A); IP1 accumulation, agonist, HTRF; HEK293T; 1 h, 37 °C, I138A mutant, 3.40).
CC(=O)N[C@@H](CCCNC(=N)N)C(=O)N[C@H](C(=O)N[C@@H](CCCCN)C(=O)N[C@@H](CO)C(=O)N[C@@H](CCCNC(=N)N)C(=O)N[C@H](C(=O)N[C@@H](Cc1c[nH]c2ccccc12)C(=O)N[C@@H](C)C(=O)N[C@@H](Cc1ccc(O)cc1)C(N)=O)[C@@H](C)OP(=O)(O)O)[C@@H](C)O: “binding free energy” -9.58 ± 0.029 kcal/mol (14-3-3 protein epsilon; surface plasmon resonance; 298 K).
Cc1ccc(N2CC3CC(C2)N3C)cc1C(=O)NC1(c2ccc3c4c(cccc24)C(=O)N3C)CC1 has an IC50 of over 50000 nM (Cytochrome P450 2D6 (CYP2D6, Homo sapiens, UniProt P10635); enzyme activity, inhibitor).
Cc1cc(O)cc(C)c1C[C@H](N)C(=O)N[C@H](CCCNC(=N)N)C(=O)N[C@@H](Cc1ccccc1)C(=O)N(C)CC(=O)N(C)Cc1cc(C(F)(F)F)cc(C(F)(F)F)c1 gave a Ki of 194 nM (Delta-type opioid receptor (OPRD1, Homo sapiens, UniProt P41143, Y129A)).
For COc1ccccc1-c1n[nH]c2nc(NC3CCN(C(=O)Cc4ccc(F)cc4F)CC3)ncc12, the relative abundance was 0.82 (bead binding, competition bead pull-down, refers to: LINJ.34.0030; Leishmania donovani extract; 10 µM; reference: vehicle).
CC(C)(C)C(=O)OCOP(=O)(OCOC(=O)C(C)(C)C)C1CCCN(O)C1=O (stereo not shown) has a log TGI of -5.1 log M (SR).
For O=C1NC2(CC2)COc2ncc(F)cc2[C@H]2COCCN2c2ccn3ncc1c3n2, the serum urea was 7.32 ± 2.07 mmol/L (Sprague-Dawley rat, female, serum; oral, 20 mg/kg/day, end of treatment, 4-week subacute toxicity).
For CCCCC/C=C\C/C=C\C/C=C\C/C=C\CCCC(=O)NCCc1ccc(O)c(O)c1, the EC50 was 60 ± 10 nM (Transient receptor potential cation channel subfamily V member 1 (Trpv1, Mus musculus, UniProt Q704Y3, Y512F); ion current, agonist, whole-cell patch clamp; 24 °C, Y512F, +80 mV).
With CC(=O)N[C@@H](CCCNC(=N)N)C(=O)N[C@@H](Cc1ccc(O)cc1)C(=O)N[C@@H](CCCNC(=N)NC(=O)NCCCCN)C(=O)N[C@@H](CC(C)C)C(=O)N[C@@H](CCCNC(=N)N)C(=O)N[C@H](Cc1ccc(O)cc1)C(N)=O the Kb was 1660 nM (Neuropeptide Y receptor type 4 (NPY4R, Homo sapiens, UniProt P50391); calcium signal, antagonist).

Excerpt of the above:
CC(C)(C)C(=O)OCOP(=O)(OCOC(=O)C(C)(C)C)C1CCCN(O)C1=O (stereo not shown) has a log TGI of -5.1 log M (SR).
CC(=O)N[C@@H](CCCNC(=N)N)C(=O)N[C@H](C(=O)N[C@@H](CCCCN)C(=O)N[C@@H](CO)C(=O)N[C@@H](CCCNC(=N)N)C(=O)N[C@H](C(=O)N[C@@H](Cc1c[nH]c2ccccc12)C(=O)N[C@@H](C)C(=O)N[C@@H](Cc1ccc(O)cc1)C(N)=O)[C@@H](C)OP(=O)(O)O)[C@@H](C)O: “binding free energy” -9.58 ± 0.029 kcal/mol (14-3-3 protein epsilon; surface plasmon resonance; 298 K).
